Published values of several laboratories.
Lines come from different studies, so protocols differ.

CO/N=c1\cc2n(-c3ccc(Cl)cc3)c3ccccc3nc-2cc1Nc1ccc(Cl)cc1  MIC (Mycobacteroides abscessus; bacterial growth; ATCC 19977): > 30 µM
O=C(O)c1ccc(NCc2cc(Br)ccc2O)cc1  MIC (Enterococcus): 64 µg/mL
C=CC(=O)ON=C1C=CC(=C(C#N)c2ccccc2)C=C1  MIC (Candida parapsilosis; broth dilution; ATCC 22099; 48 h, 37 °C): 16 µg/mL
O=C(O)CO/N=c1\cc2n(-c3ccc(Cl)cc3)c3ccccc3nc-2cc1Nc1ccc(Cl)cc1  MIC (Mycobacteroides abscessus; bacterial growth; clinical isolate): > 30 µM
CCCCCCCCCC(=O)N[C@@H](Cc1c[nH]c2ccccc12)C(=O)N[C@H](CC(N)=O)C(=O)N[C@@H](CC(=O)O)C(=O)N[C@@H]1C(=O)NCC(=O)N[C@@H](CCCN)C(=O)N[C@@H](CC(=O)O)C(=O)N[C@H](C)C(=O)N[C@@H](CC(=O)O)C(=O)NCC(=O)N[C@H](CO)C(=O)N[C@@H]([C@H](C)CC(=O)O)C(=O)N[C@@H](CC(=O)c2ccccc2N)C(=O)O[C@@H]1C  MIC (Staphylococcus aureus; SH1000; added: phosphatidylcholine, molar ratio 2): 1 µg/mL
CC1(C)S[C@@H]2[C@H](NC(=O)[C@H](N)c3ccccc3)C(=O)N2[C@H]1C(=O)O  MIC (Escherichia coli; broth microdilution; ATCC 25922 wild type; no clavulanic acid): 1.56 µg/mL
CN[C@H](CC(C)C)C(=O)N[C@H]1C(=O)N[C@@H](CC(N)=O)C(=O)N[C@H]2C(=O)N[C@H]3C(=O)N[C@H](C(=O)N[C@H](C(=O)O)c4cc(O)cc(O)c4-c4cc3ccc4O)[C@H](O)c3ccc(c(Cl)c3)Oc3cc2cc(c3O[C@@H]2O[C@H](CO)[C@@H](O)[C@H](O)[C@H]2O[C@H]2C[C@](C)(N)[C@H](O)[C@H](C)O2)Oc2ccc(cc2Cl)[C@H]1O  MIC (Bacillus cereus; ATCC 13061): 0.7 µg/mL
CC1(C)SC2C(NC(=O)C(NC(=O)C3=C(O)C(Cc4ccc(O)cc4)NC3=O)c3ccccc3)C(=O)N2C1C(=O)O (centres unmarked)  MIC (Escherichia coli; broth microdilution; ATCC 25922 wild type; added: clavulanic acid 6 µg/mL): 12.5 µg/mL
CN[C@H](CC(C)C)C(=O)N[C@H]1C(=O)N[C@@H](CC(N)=O)C(=O)N[C@H]2C(=O)N[C@H]3C(=O)N[C@H](C(=O)N[C@H](C(=O)O)c4cc(O)cc(O)c4-c4cc3ccc4O)[C@H](O)c3ccc(c(Cl)c3)Oc3cc2cc(c3O[C@@H]2O[C@H](CO)[C@@H](O)[C@H](O)[C@H]2O[C@H]2C[C@](C)(N)[C@H](O)[C@H](C)O2)Oc2ccc(cc2Cl)[C@H]1O  MIC (Virgibacillus massiliensis; broth microdilution; DSM 28587): 0.17 µM
C=CCO/N=c1\cc2n(-c3ccc(Cl)cc3)c3ccccc3nc-2cc1Nc1ccc(Cl)cc1  MIC (Mycobacteroides abscessus; bacterial growth; ATCC 19977): > 30 µM
N=C(N)c1ccc(OCCC(CCOc2ccc(C(=N)N)cc2)c2ccccc2)cc1 (centres unmarked)  MIC (Escherichia coli; 552100; compound alone): > 200 µg/mL
Cc1ccc(C(C)C)c(OC2=C(Cl)C(=O)c3ccccc3C2=O)c1  MIC (Bacillus cereus; broth microdilution; MTCC 430): 10 µg/mL
C[C@@H]1[C@H](O)[C@@H](C)/C=C/C=C/C=C/C=C/C=C/C=C/C=C/[C@H](O[C@@H]2O[C@H](C)[C@@H](O)[C@H](N)[C@@H]2O)C[C@@H]2O[C@](O)(C[C@@H](O)C[C@@H](O)[C@H](O)CC[C@@H](O)C[C@@H](O)CC(=O)O[C@H]1C)C[C@H](O)[C@H]2C(=O)O  MIC (Candida parapsilosis; broth dilution; ATCC 22099; 48 h, 37 °C): 32 µg/mL
COc1ccccc1CNc1ccc(C(=O)O)cc1  MIC (Enterococcus): 128 µg/mL
Cc1c(CN(C)C(=O)/C=C/c2cnc3c(c2)CCC(=O)N3)oc2ccccc12  MIC (Escherichia coli; broth microdilution; AR-0346): > 32 µg/mL
O/N=c1\cc2n(-c3ccc(Cl)cc3)c3ccccc3nc-2cc1Nc1ccc(Cl)cc1  MIC (Mycobacteroides abscessus; bacterial growth; ATCC 19977): > 30 µM
N=C(N)c1ccc(OCc2ccc(Br)cc2COc2ccc(C(=N)N)cc2)cc1  MIC (Escherichia coli; mcr-3 polymyxin-resistant; compound alone): > 200 µg/mL
C[C@H](NC(=O)CO/N=c1\cc2n(-c3ccc(Cl)cc3)c3ccccc3nc-2cc1Nc1ccc(Cl)cc1)C(=O)O  MIC (Mycobacteroides abscessus; bacterial growth; ATCC 19977): > 30 µM
CNC(C)C1CCC(N)C(OC2C(N)CC(N)C(OC3OCC(C)(O)C(NC)C3O)C2O)O1 (centres unmarked)  MIC (Pseudomonas aeruginosa; clinical isolate RKI-No_84/15): 4 µg/mL
N=C(N)c1cccc(OCc2ccc(COc3cccc(C(=N)N)c3)cc2)c1  MIC (Escherichia coli; BW25113; compound alone, vancomycin checkerboard): > 200 µg/mL
CCOC(=O)CNC(=O)CO/N=c1\cc2n(-c3ccc(Cl)cc3)c3ccccc3nc-2cc1Nc1ccc(Cl)cc1  MIC (Mycobacteroides abscessus; bacterial growth; ATCC 19977): > 30 µM
C[C@@H](O)[C@H]1C(=O)N2C(C(=O)O)=C(S[C@@H]3CN[C@H](C(=O)N(C)C)C3)[C@H](C)[C@H]12  MIC (Salmonella enterica Derby; broth microdilution; clinical isolate RKI 270/14): ≤ 0.5 µg/mL
CCCCCCCCCC(=O)N[C@@H](Cc1c[nH]c2ccccc12)C(=O)N[C@H](CC(N)=O)C(=O)N[C@@H](CC(=O)O)C(=O)N[C@@H]1C(=O)NCC(=O)N[C@@H](CCCN)C(=O)N[C@@H](CC(=O)O)C(=O)N[C@H](C)C(=O)N[C@@H](CC(=O)O)C(=O)NCC(=O)N[C@H](CO)C(=O)N[C@@H]([C@H](C)CC(=O)O)C(=O)N[C@@H](CC(=O)c2ccccc2N)C(=O)O[C@@H]1C  MIC (Enterococcus; broth microdilution; VRE 155, Mueller-Hinton broth, Mg2+ 10 mg/L; 16 h, added: Ca2+ 2.5 mM): 0.25 µg/mL

Repeated from above:
C[C@H](NC(=O)CO/N=c1\cc2n(-c3ccc(Cl)cc3)c3ccccc3nc-2cc1Nc1ccc(Cl)cc1)C(=O)O  MIC (Mycobacteroides abscessus; bacterial growth; ATCC 19977): > 30 µM
